Assay results from different studies.
A part holds a random share of what one study measured. Values joined by “and” are separate records of one study, mostly repeats; a detail may differ.
Chain of UniProt O00444 (whole entry, looked up): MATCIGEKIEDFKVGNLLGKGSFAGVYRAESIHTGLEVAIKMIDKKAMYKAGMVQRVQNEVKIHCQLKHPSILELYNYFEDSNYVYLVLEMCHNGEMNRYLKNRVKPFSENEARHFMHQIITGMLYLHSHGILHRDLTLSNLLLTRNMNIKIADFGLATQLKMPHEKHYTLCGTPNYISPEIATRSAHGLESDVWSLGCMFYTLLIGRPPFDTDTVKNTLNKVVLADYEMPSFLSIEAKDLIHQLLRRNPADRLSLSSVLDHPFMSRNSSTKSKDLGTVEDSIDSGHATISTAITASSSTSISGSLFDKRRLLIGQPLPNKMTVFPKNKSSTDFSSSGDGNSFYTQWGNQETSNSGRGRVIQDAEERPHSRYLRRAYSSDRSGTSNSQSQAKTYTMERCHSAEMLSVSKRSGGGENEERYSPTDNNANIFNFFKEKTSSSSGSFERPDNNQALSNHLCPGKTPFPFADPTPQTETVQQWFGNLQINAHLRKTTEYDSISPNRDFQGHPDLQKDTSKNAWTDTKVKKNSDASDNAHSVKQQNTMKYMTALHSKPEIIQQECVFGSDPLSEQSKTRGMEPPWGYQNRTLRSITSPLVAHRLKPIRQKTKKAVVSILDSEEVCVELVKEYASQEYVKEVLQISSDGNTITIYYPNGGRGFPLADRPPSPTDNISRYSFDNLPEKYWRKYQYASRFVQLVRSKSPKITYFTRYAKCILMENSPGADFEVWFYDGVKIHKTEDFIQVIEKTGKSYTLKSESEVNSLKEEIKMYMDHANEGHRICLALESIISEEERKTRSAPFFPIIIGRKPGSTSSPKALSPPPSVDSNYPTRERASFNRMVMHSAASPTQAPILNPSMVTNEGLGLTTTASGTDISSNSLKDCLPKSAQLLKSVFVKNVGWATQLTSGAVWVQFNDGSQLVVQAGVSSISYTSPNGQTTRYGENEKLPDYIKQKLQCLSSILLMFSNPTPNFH
Chain of UniProt P29322 (whole entry, looked up): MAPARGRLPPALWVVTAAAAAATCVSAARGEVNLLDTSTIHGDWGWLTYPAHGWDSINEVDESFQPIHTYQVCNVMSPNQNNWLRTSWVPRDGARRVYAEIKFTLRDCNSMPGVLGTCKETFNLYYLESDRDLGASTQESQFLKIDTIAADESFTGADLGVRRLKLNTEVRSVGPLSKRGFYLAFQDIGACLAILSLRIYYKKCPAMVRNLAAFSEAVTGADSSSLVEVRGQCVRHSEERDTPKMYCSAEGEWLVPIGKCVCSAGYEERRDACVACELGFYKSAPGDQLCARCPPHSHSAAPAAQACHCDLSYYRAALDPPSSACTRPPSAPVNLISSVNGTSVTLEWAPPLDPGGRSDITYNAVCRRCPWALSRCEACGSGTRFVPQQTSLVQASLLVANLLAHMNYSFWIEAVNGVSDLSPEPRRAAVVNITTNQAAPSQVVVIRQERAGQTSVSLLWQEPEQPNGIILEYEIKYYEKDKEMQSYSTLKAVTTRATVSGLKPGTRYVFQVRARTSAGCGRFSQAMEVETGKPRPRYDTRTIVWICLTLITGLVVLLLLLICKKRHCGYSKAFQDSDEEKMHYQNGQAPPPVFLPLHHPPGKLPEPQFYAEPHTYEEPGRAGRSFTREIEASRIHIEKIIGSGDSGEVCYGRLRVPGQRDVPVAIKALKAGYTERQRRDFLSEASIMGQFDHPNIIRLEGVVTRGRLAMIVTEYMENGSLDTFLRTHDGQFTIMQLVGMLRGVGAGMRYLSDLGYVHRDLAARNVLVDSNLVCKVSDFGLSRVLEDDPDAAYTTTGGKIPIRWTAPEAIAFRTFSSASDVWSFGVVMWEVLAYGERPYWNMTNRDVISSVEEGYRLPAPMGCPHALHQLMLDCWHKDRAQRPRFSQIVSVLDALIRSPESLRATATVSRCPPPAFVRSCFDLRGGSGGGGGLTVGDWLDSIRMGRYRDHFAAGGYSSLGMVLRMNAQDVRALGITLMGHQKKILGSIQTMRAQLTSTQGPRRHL
Chain of UniProt P80192 (whole entry, looked up): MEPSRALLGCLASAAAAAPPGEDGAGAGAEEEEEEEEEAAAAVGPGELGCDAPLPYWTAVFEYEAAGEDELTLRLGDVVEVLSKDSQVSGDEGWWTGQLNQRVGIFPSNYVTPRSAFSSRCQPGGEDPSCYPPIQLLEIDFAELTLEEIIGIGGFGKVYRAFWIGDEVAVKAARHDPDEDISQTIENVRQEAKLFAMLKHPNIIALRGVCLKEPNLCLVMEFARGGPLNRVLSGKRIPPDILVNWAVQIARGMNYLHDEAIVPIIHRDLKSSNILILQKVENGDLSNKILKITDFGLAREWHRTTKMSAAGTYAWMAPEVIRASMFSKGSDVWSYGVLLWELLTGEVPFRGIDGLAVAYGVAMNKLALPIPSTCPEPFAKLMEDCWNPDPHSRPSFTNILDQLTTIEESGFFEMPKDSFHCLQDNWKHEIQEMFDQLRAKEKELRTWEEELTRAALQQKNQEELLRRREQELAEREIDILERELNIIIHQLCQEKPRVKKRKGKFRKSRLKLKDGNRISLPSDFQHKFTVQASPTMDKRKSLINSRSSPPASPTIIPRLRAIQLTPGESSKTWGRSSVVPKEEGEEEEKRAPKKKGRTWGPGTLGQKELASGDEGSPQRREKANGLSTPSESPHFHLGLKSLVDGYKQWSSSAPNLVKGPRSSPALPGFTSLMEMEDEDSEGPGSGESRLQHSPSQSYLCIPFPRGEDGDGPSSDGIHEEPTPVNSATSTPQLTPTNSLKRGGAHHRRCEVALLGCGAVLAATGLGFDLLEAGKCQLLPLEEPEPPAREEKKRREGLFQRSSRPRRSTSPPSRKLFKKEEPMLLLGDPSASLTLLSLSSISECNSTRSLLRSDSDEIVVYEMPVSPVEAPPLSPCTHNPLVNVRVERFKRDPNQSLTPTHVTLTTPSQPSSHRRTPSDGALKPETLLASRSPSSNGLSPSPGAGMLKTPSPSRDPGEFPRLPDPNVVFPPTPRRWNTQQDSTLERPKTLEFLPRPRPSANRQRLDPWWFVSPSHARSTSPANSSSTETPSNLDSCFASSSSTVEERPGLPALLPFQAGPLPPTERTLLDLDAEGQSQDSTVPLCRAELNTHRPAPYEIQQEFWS
Chain of UniProt P10721 (whole entry, unmodified, looked up): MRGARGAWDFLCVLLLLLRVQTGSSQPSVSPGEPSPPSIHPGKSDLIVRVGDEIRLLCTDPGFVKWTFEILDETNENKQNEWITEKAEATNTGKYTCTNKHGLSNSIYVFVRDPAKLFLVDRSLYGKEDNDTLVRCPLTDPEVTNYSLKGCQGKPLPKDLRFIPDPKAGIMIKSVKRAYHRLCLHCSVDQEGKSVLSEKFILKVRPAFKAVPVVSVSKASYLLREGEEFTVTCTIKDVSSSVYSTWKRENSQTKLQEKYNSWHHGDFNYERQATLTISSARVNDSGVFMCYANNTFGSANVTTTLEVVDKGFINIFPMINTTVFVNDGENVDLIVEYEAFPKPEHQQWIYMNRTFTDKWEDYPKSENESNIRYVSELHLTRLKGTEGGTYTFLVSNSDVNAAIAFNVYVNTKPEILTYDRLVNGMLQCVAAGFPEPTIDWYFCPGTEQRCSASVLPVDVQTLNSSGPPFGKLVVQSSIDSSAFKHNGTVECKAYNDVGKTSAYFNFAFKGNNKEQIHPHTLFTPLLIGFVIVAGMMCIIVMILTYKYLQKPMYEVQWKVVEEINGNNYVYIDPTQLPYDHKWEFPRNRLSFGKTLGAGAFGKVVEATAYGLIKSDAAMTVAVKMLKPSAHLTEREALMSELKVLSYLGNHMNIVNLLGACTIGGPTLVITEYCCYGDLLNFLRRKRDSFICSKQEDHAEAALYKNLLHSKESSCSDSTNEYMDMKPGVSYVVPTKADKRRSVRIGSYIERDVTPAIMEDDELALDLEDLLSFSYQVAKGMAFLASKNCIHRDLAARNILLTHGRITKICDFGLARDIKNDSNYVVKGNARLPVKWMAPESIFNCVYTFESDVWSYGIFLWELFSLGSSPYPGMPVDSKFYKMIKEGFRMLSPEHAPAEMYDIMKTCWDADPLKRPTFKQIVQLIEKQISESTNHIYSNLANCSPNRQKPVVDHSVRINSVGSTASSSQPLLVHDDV

Set 1
Observed: AlphaScreen signal
Method: AlphaScreen counter screen
Medium: His6 peptide without bromodomain
Tested at: 50 µM
Setting: assay interference check
Measurement: inhibition
COc1cc(Nc2ncc(F)c(Nc3ccc4c(n3)NC(=O)C(C)(C)O4)n2)cc(OC)c1OC: 16.5%
Cc1sc2nc[nH]c(=O)c2c1-c1ccc(Cl)cc1: 8.75%
COc1ccc(C)c(Nc2cc(OCCN3CCOCC3)nc(-n3cnc4ccccc43)n2)c1: 54.3%
CCN(CC)Cc1c(-c2ccc(OC)cc2)[nH]c2ncccc12: 1.2%
O=C(NCc1ccco1)c1n[nH]c2ccccc12: 6.45%
Cc1cc2nc(C(C#N)=Cc3ccncc3)[nH]c2cc1C: 25.4%
COc1ccc(CCNc2nc(N)nc3[nH]cnc23)cc1OC: 48.7%
CN1CCC(COc2cnc(-c3cccc(Cn4nc(-c5cccc(C#N)c5)ccc4=O)c3)nc2)CC1: 12.7%

Set 2
Cell line: mouse MPNST tumor cells
Method: high-content immunofluorescence imaging
Item: nuclear SOX9
Tested at: 10 µM
Time: 12 h
Setting: mean of 2 replicates
Reference: DMSO control
Direction: higher = more nuclear SOX9
Measurement: nuclear SOX9 intensity
C[C@]1(C(=O)N(CCCC(=O)O)Cc2cccc(Cl)c2)CCN1C(=O)c1csc2ccccc12: 95 % of DMSO
O=C1c2cccc3c2[C@H](CCC3)CN1[C@@H]1CN2CCC1CC2: 121 % of DMSO and 115 % of DMSO
Cc1cc2c(cc1N1C(=O)c3cccc4c(CCCO)ccc(c34)C1=O)n(C)c(=O)n2C: 248 % of DMSO and 207 % of DMSO
O=C(NCC(O)CO)c1c(I)c(C(=O)NCC(O)CO)c(I)c(N(CCO)C(=O)CO)c1I (centres unmarked): 91.6 % of DMSO
O=c1[nH]c(=O)n(C2CCCO2)cc1F (centres unmarked): 105 % of DMSO
CC(=O)OCC1=C(C(=O)O)N2C(=O)[C@@H](NC(=O)Cc3cccs3)[C@H]2SC1: 81.3 % of DMSO
O=[N+]([O-])c1c(Nc2cc(F)cc(Cl)c2)ccc2nonc12: 92.1 % of DMSO
C=CCN1CCCC1CNC(=O)c1cc2nn[nH]c2cc1OC (centres unmarked): 97.4 % of DMSO
CCOC(=O)N1c2ccc(C(F)(F)F)cc2[C@@H](N(Cc2cc(C(F)(F)F)cc(C(F)(F)F)c2)C(=O)OC)C[C@H]1CC: 117 % of DMSO

Set 3
SMILES: O=C(NCc1ncc(C(F)(F)F)cc1Cl)c1ccc2c(c1)C1(CCS(=O)(=O)CC1)[C@H](C1CC1)N2S(=O)(=O)c1ccc(F)cc1
Observed: cell-free assay
Method: competition with immobilised ligand
Tested at: 1 µM
Measurement: remaining binding
Tyrosine-protein kinase ABL1, phosphorylated (ABL1, Homo sapiens, UniProt P00519, H396P): 80%
EPHA8 (Homo sapiens, UniProt P29322): 97%
KIT (Homo sapiens, UniProt P10721, V559D/V654A): 100%
MAP3K9 (Homo sapiens, UniProt P80192): 100%
Tyrosine-protein kinase ABL1, non-phosphorylated (ABL1, Homo sapiens, UniProt P00519, T315I): 57%
EGFR (Homo sapiens, UniProt P00533, L861Q): 84%
PLK4 (Homo sapiens, UniProt O00444): 92%
FLT3 (Homo sapiens, UniProt P36888, D835V): 70%

Set 4
Target: cGMP-dependent protein kinase 1, isoform beta (PRKG1, Homo sapiens, UniProt Q13976)
Chain of UniProt Q13976 (whole entry, looked up): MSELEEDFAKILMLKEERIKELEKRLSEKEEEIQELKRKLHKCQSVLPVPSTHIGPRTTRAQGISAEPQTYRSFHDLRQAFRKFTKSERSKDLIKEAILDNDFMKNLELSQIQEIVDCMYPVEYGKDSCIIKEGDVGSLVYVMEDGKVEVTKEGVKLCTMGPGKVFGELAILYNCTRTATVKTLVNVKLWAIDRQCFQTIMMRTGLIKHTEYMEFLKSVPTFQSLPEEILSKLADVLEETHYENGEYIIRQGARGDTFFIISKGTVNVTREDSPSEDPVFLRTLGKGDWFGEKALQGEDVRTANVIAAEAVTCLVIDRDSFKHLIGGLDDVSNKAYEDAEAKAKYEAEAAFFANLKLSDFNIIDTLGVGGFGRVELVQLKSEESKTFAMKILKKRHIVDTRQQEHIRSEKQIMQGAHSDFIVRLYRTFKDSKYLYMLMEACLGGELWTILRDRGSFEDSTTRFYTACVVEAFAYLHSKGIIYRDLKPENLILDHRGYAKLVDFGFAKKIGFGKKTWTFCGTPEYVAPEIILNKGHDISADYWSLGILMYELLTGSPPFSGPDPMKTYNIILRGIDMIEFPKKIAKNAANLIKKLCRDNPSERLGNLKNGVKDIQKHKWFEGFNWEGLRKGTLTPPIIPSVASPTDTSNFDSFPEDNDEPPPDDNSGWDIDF
Observed: enzyme activity
Mode: inhibitor
Tested at: 0.5 µM
Reference: control
Measurement: remaining activity
Cc1cccc(-c2[nH]c(C(C)(C)C)nc2-c2ccc3c(c2)OCO3)n1: 91%
CNC(=O)c1cc(Oc2ccc(NC(=O)Nc3ccc(Cl)c(C(F)(F)F)c3)cc2)ccn1: 104%
Nc1ncnc2n[nH]c(Nc3ccc(F)cc3)c12: 96.9%
COc1ccc(C(=O)Nc2sc3c(c2C(N)=O)CCCC3)cc1OC: 87.5%
CCOC(=O)c1c(C)[nH]c(/C=C2\C(=O)Nc3ccccc32)c1C: 92.8%
Cn1c2ccccc2c2c3c(c4c5ccccc5n(CCC#N)c4c21)CNC3=O: 84.3%
O=C1NC(=O)c2cc(Nc3ccc(F)cc3)c(Nc3ccc(F)cc3)cc21: 103%
COc1ccc(CNC(=O)Nc2ncc([N+](=O)[O-])s2)cc1: 97.3%
Cn1sc(=O)n(Cc2ccccc2)c1=O: 93.2%
C#Cc1cccc(Nc2ncnc3cc(OCCOC)c(OCCOC)cc23)c1: 93.5%
COc1cc2nccc(Oc3ccc(NC(=S)NC(=O)c4ccccc4C)cc3)c2cc1OC: 101%
O=C1NC(=O)C(c2cn(CCCn3ccnc3)c3ccccc23)=C1Nc1ccccc1: 88.8%
CN(C)c1ccc(C=C2C(=O)Nc3ccccc32)cc1: 86.9%
COc1cc2ncnc(Nc3ccc(F)c(Cl)c3)c2cc1OCCCN1CCOCC1: 103%
Nc1[nH]nc2nc3ccccc3nc12: 93%
Cc1ccc(Nc2nccc(N(C)c3ccc4c(C)n(C)nc4c3)n2)cc1S(N)(=O)=O: 103%

For quick reference, copied from above (set 3):
Tyrosine-protein kinase ABL1, non-phosphorylated (ABL1, Homo sapiens, UniProt P00519, T315I): 57%
EGFR (Homo sapiens, UniProt P00533, L861Q): 84%
PLK4 (Homo sapiens, UniProt O00444): 92%
